Experimental data pooled from the literature.
Compare with care: the assays were run in different laboratories. Values joined by “and” are separate records of one study, mostly repeats; a detail may differ. ± gives the spread as reported.

For Cc1ccc(C)c(OCCCC(C)(C)C(=O)O)c1, the AUC(0-inf) decrease was 41% (human, plasma; oral, dose not given, together with: lopinavir-ritonavir two weeks; baseline: without lopinavir-ritonavir).
Cc1cc(Nc2ncnc3ccc(NC4=NC(C)(CO)CO4)cc23)ccc1Oc1ccn2ncnc2c1 (stereo not shown) — result for “AUC(0-inf) (arithmetic mean)”: 367 ng·h/mL (human, plasma; tucatinib, day 10, together with: rifampin once daily).
Under “AUC(0-inf) geometric LS mean”, CC(C)=CCC/C(C)=C/CC/C(C)=C/CC[C@@](C)(O)CCC1=C(C)C(=O)C(C)=C(C)C1=O is recorded as 3850 ng·h/mL (healthy human, plasma; oral, 400 mg, single dose, alone).
For CC(C)c1nc(N(C)S(C)(=O)=O)nc(-c2ccc(F)cc2)c1/C=C/[C@@H](O)C[C@@H](O)CC(=O)O, the AUC(0-inf) decrease was 31% (human; oral, dose not given, together with: omaveloxolone; baseline: substrate alone).
For CO[C@]1(C(=O)N[C@@H](C)c2ccc(-n3cc(F)cn3)nc2)CC[C@H](c2nc(C)cc(Nc3cc(C)[nH]n3)n2)CC1, the AUC(0-inf) increase was 122% (human, plasma; oral, 200 mg single dose, together with: high-fat meal; baseline: fasted).
For C=CC(=O)NC1CCN(c2ncc3ncnc(Nc4ccc(Oc5ccc6c(c5)ncn6C)c(C)c4)c3n2)CC1, the AUC(0-inf) ratio was 37.8% (healthy male humans, plasma; oral, dose not given, together with: carbamazepine; baseline: with over without carbamazepine).
With CC1(C)CC[C@]2(NC(=O)C(C)(F)F)CC[C@]3(C)[C@H](C(=O)C=C4[C@@]5(C)C=C(C#N)C(=O)C(C)(C)[C@@H]5CC[C@]43C)[C@@H]2C1 the AUC(0-inf) decrease was 48.5% (human, plasma; oral, dose not given, together with: efavirenz; baseline: without efavirenz).
The AUC(0-inf) ratio of C[C@H](Oc1ccc(Br)cc1-c1ccon1)C(=O)O is reported as 0.95 (human, plasma; 800 mg single dose; baseline: fed over fasted).
CCCn1cc(C)c2c(=O)[nH]c(-c3cc(S(=O)(=O)N4CCN(CC)CC4)ccc3OCC)nc21 gave an AUC(0-inf) increase of 42.9% (human, plasma; dose not given, together with: alcohol; baseline: drug alone).
Cn1cncc1[C@@](N)(c1ccc(Cl)cc1)c1ccc2c(c1)c(-c1cccc(Cl)c1)cc(=O)n2C has an AUC(0-inf) decrease of 20% (healthy humans, plasma; oral, 300 mg, together with: rabeprazole; baseline: alone).
With N[C@]1(C(=O)O)[C@H]2[C@@H](C[C@@H]1F)[C@@H]2C(=O)O the AUC(0-inf) ratio was 0.747 (human, both sexes, plasma; oral, 10 mg, single dose; baseline: fed over fasted).
With NC[C@@]1(CC(=O)O)[C@@H]2CC[C@H]3C[C@@H]2[C@@H]1C3 the AUC(0-inf) increase was 120% (human, moderate renal impairment, plasma; dose not given; baseline: normal renal function).
For CC(C)[C@@H]1CC[C@@H](C)C[C@H]1OC(=O)O[C@@H](C)OC(=O)[C@H]1[C@@H]2C[C@H](F)[C@@](N)(C(=O)O)[C@@H]21, the AUC(0-inf) ratio was 0.917 (human, plasma; oral, 10 mg, single dose; baseline: fed over fasted).
For N[C@@H](CC(=O)N1CCn2c(nnc2C(F)(F)F)C1)Cc1cc(F)c(F)cc1F, “AUC(0-inf) divided by body mass index” read 171 ± 25.6 ng·h/mL (human, female, plasma; oral, 100 mg single dose).
Cc1nc(-c2ccc(OCC(C)C)c(C#N)c2)sc1C(=O)O gave an AUC(0-inf) reduction of 12% and ~12% (human, plasma; oral, 40 mg, together with: high-fat meal; baseline: fasting).
C=CC(=O)N(C)CCOc1c(N)ncnc1-c1cc(F)cc(NC(=O)c2ccc(C3CC3)cc2F)c1C — result for “AUC(0-inf) per dose”: 21.4 ng·h/mL/mg (human; oral, 20 mg, day 7, arithmetic mean, together with: ritonavir).

Excerpt of the above:
For Cc1ccc(C)c(OCCCC(C)(C)C(=O)O)c1, the AUC(0-inf) decrease was 41% (human, plasma; oral, dose not given, together with: lopinavir-ritonavir two weeks; baseline: without lopinavir-ritonavir).
Cc1cc(Nc2ncnc3ccc(NC4=NC(C)(CO)CO4)cc23)ccc1Oc1ccn2ncnc2c1 (stereo not shown) — result for “AUC(0-inf) (arithmetic mean)”: 367 ng·h/mL (human, plasma; tucatinib, day 10, together with: rifampin once daily).
Under “AUC(0-inf) geometric LS mean”, CC(C)=CCC/C(C)=C/CC/C(C)=C/CC[C@@](C)(O)CCC1=C(C)C(=O)C(C)=C(C)C1=O is recorded as 3850 ng·h/mL (healthy human, plasma; oral, 400 mg, single dose, alone).
